Measured values pooled from the literature.
Values joined by “and” are separate records of one study, mostly repeats; a detail may differ. ± marks the error that the study gave.

SMILES	test	system	conditions	how to read	endpoint	value
CSCC[C@H](NC(=O)CNC(=O)[C@H](CCCCN)NC(=O)[C@H](CC(C)C)NC(=O)[C@@H]1CCCN1C(=O)[C@H](CO)NC(=O)[C@H](Cc1c[nH]cn1)NC(=O)[C@H](Cc1c[nH]c2ccccc12)NC(=O)[C@H](CCCNC(=N)N)NC(=O)[C@H](CC(C)C)NC(=O)[C@H](CCCNC(=N)N)NC(=O)[C@H](Cc1c[nH]c2ccccc12)NC(=O)[C@H](CS)NC(=O)CCCCCNC(=O)CN1CCN(CC(=O)O)CCN(CC(=O)O)CCN(CC(=O)O)CC1)C(=O)O [copper-64 labelled]	PET	C57BL/6J mice, B16-F10 tumour, tumor	intravenous, 3.5 h		tissue uptake	1.95 ± 0.17 %ID/g
CSCC[C@@H]1NC(=O)[C@H](C(C)C)NC(=O)[C@H](CCCNC(=N)N)NC(=O)CNC(=O)[C@@H]2CCCN2C(=O)[C@@H](NC(=O)CNC(=O)[C@H](CO)NC(=O)CNC(=O)[C@H](CO)NC(=S)Nc2ccc(C[C@H]3CN(CC(=O)O)CCN(CC(=O)O)CCN3CC(=O)O)cc2)CSSC[C@@H](C(N)=O)NC(=O)[C@@H]2CCCN2C(=O)CNC(=O)[C@H](CCC(=O)O)NC(=O)[C@H](CC(=O)O)NC(=O)[C@H](CC(=O)O)NC(=O)CNC(=O)[C@H](CC(C)C)NC(=O)[C@H](Cc2c[nH]cn2)NC(=O)[C@H](CC(C)C)NC(=O)CNC(=O)[C@H](Cc2c[nH]cn2)NC1=O [copper-64 labelled]	dynamic PET	CD rat, myocardial infarction model, fibrotic infarct myocardium	intravenous, 18.5 MBq, 5 to 60 min		half-life	22.9 ± 5.5 min
N#[11C]c1ccc(-c2csc(NN=C3CCCC3)n2)cc1		C57BL/6 mice, male, spleen	intravenous, 3 MBq, 15 min		radioactivity uptake	4.05 ± 0.04 %ID/g
C#Cc1c(F)ccc2cc(O)cc(-c3ncc4c(N5CC6CCC(C5)N6C(=O)OC(CC)OC(=O)CCC)nc(OC[C@@]56CCCN5C[C@H](F)C6)nc4c3F)c12 (stereo partly drawn)	chemical stability	simulated intestinal fluid	1 µM, 30 min		compound remaining	101%
CC(=O)CCC1C(=O)NC(C(C)C)C(=O)NC(Cc2cc(O)cc(F)c2)C(=O)N2CCCC(N2)C(=O)OC(C(C)=CC=CC(=O)N2CCCCO2)CC=CC=CC(O)C(C)C1O (stereo not drawn)		CD-1 mice, serum	oral, 5 mg/kg repeated, day 7		total bilirubin	2.9 µM
C=Cc1c(C)c2cc3nc(c(CC(=O)[O-])c4[n-]c(cc5nc(cc1[n-]2)C(C)=C5CC)c(C)c4C(=O)[O-])C(CCC(=O)[O-])C3C.[Cu+2].[Na+].[Na+].[Na+] (stereo not drawn)		Wistar rat, male	oral, 1000 mg/kg daily, 28 days		haemoglobin	14.4 ± 0.7 g/dL
CCCCCCCCCC(=O)N[C@@H](CCCNC(=N)N)C(=O)N[C@@H](Cc1c[nH]c2ccccc12)C(=O)N[C@@H](CCCCN)C(=O)N[C@H](C(=O)N[C@@H](Cc1ccccc1)C(=O)N[C@@H](CCCCN)C(=O)N[C@@H](CCCCN)C(=O)N[C@H](C(=O)N[C@@H](CCC(=O)O)C(=O)N[C@@H](CCCCN)C(=O)N[C@H](C(=O)NCC(=O)N[C@@H](CCC(N)=O)C(=O)N[C@@H](CC(N)=O)C(=O)N[C@H](C(=O)N[C@@H](CCCNC(=N)N)C(=O)N[C@@H](CC(=O)O)C(=O)NCC(=O)N[C@H](C(=O)N[C@H](C(=O)N[C@@H](CCCCN)C(=O)N[C@@H](C)C(=O)NCC(=O)N1CCC[C@H]1C(=O)N[C@@H](C)C(=O)N[C@H](C(=O)N[C@@H](C)C(=O)N[C@H](C(=O)N[C@H](C(=O)NCC(=O)N[C@@H](CCC(N)=O)C(=O)N[C@@H](C)C(=O)N[C@@H](C)C(=O)N[C@H](C(=O)N[C@H](C(N)=O)[C@@H](C)CC)[C@@H](C)O)C(C)C)C(C)C)C(C)C)C(C)C)[C@@H](C)CC)[C@@H](C)CC)C(C)C)[C@@H](C)CC)[C@@H](C)CC		mouse erythrocytes	32 µM, 1 h, 37 °C		hemolysis	< 8%
CC(C)[C@@H]1NC(=O)CNC(=O)[C@H](CC(N)=O)NC(=O)[C@H](CCCNC(=N)N)NC(=O)[C@H](Cc2ccc(O)cc2)NC(=O)[C@H](C(C)C)NC(=O)[C@@H](NC(=O)[C@@H](NC(=O)[C@H](CC(N)=O)NC(=O)[C@H](Cc2c[nH]c3ccccc23)NC(=O)[C@H](C)NC(=O)[C@H](Cc2ccccc2)NC(=O)CNC(=O)[C@H](CCCCN)NC(=O)[C@H](Cc2ccccc2)NC(=O)[C@H](Cc2ccccc2)NC(=O)[C@H](CCCCN)NC(=O)OCC2c3ccccc3-c3ccccc32)C(C)C)CSSC[C@@H](C(=O)N[C@@H](Cc2c[nH]cn2)C(=O)N[C@@H](CCCNC(=N)N)C(=O)N[C@@H](CCCNC(=N)N)C(=O)N[C@@H](C)C(=O)N[C@@H](CC(N)=O)C(N)=O)NC(=O)[C@H](C(C)C)NC(=O)[C@H](CCCNC(=N)N)NC1=O		ICR mice, blood	intraperitoneal, 10 mg/kg, day 5		haematocrit	40.2 ± 1.22%
CC(C)C[C@@H](NC(=O)[C@@H](CCCNC(=N)N)NC(=O)[C@@H](Cc1c[nH]cn1)NC(=O)[C@@H](Cc1c[nH]c2ccccc12)NC(=O)[C@@H](Cc1c[nH]cn1)NC(=O)[C@@H](Cc1ccccc1)NC(=O)[C@H](NC(=O)[C@@H](Cc1ccc(O)cc1)NC(=O)CNC(=O)CNC(=O)CCOCCOCCOCCNC(=O)CN1CCN(CC(=O)O)CCN(CC(=O)O)CC1)[C@H](C)O)C(=O)N[C@H](CC(N)=O)C(=O)N1CCC[C@@H]1C(=O)O [gallium-68 labelled]		human female, from C57BL/6 mouse, red marrow			absorbed dose	0.0103 ± 0.0001 mSv/MBq
O=C1NC2(CC2)COc2ncc(F)cc2[C@H]2COCCN2c2ccn3ncc1c3n2		Sprague-Dawley rat, female, serum	oral, 20 mg/kg/day, 4 weeks daily, end of treatment		albumin	31.8 ± 5.3 g/L
CSCC[C@H](N)C(=O)N[C@@H](C)C(=O)N[C@@H](Cc1c[nH]c2ccccc12)C(=O)N[C@@H](Cc1c[nH]cn1)C(=O)N[C@@H](CC(=O)O)C(=O)N[C@@H](CC(=O)O)C(=O)N[C@@H](CCC(=O)O)C(=O)N[C@@H](CCC(=O)O)C(=O)N[C@@H](Cc1ccccc1)C(=O)N[C@@H](C)C(=O)N[C@@H](CCCNC(=N)N)C(=O)N[C@@H](CCCNC(=N)N)C(=O)N[C@@H](CCCNC(=N)N)C(=O)N[C@@H](CCCNC(=N)N)C(=O)NCCCCCC(=O)NCCCCC(NC(=O)CCCCCNC(=O)[C@H](CCCNC(=N)N)NC(=O)[C@H](CCCNC(=N)N)NC(=O)[C@H](CCCNC(=N)N)NC(=O)[C@H](CCCNC(=N)N)NC(=O)[C@H](C)NC(=O)[C@H](Cc1ccccc1)NC(=O)[C@H](CCC(=O)O)NC(=O)[C@H](CCC(=O)O)NC(=O)[C@H](CC(=O)O)NC(=O)[C@H](CC(=O)O)NC(=O)[C@H](Cc1c[nH]cn1)NC(=O)[C@H](Cc1c[nH]c2ccccc12)NC(=O)[C@H](C)NC(=O)[C@@H](N)CCSC)C(=O)NCCCCC(NC(=O)C(CCCCNC(=O)CCCCCNC(=O)[C@H](CCCNC(=N)N)NC(=O)[C@H](CCCNC(=N)N)NC(=O)[C@H](CCCNC(=N)N)NC(=O)[C@H](CCCNC(=N)N)NC(=O)[C@H](C)NC(=O)[C@H](Cc1ccccc1)NC(=O)[C@H](CCC(=O)O)NC(=O)[C@H](CCC(=O)O)NC(=O)[C@H](CC(=O)O)NC(=O)[C@H](CC(=O)O)NC(=O)[C@H](Cc1c[nH]cn1)NC(=O)[C@H](Cc1c[nH]c2ccccc12)NC(=O)[C@H](C)NC(=O)[C@@H](N)CCSC)NC(=O)CCCCCNC(=O)[C@H](CCCNC(=N)N)NC(=O)[C@H](CCCNC(=N)N)NC(=O)[C@H](CCCNC(=N)N)NC(=O)[C@H](CCCNC(=N)N)NC(=O)[C@H](C)NC(=O)[C@H](Cc1ccccc1)NC(=O)[C@H](CCC(=O)O)NC(=O)[C@H](CCC(=O)O)NC(=O)[C@H](CC(=O)O)NC(=O)[C@H](CC(=O)O)NC(=O)[C@H](Cc1c[nH]cn1)NC(=O)[C@H](Cc1c[nH]c2ccccc12)NC(=O)[C@H](C)NC(=O)[C@@H](N)CCSC)C(N)=O (stereo partly drawn)		C57BL/6 mouse female, skull	dose not given, 6 h	reference: total	mean tissue distribution	26.3%
C=CC(=O)Nc1cccc(Cn2ncc3cnc(Nc4cnn(CCOC)c4)nc32)c1		Sprague-Dawley rat male, blood	oral, 180 mg/kg, day 28, 28-day subacute toxicity		haemoglobin	14.3 ± 1.31 g/dL
CC[C@H](C)[C@H](NC(=O)[C@H](CCCCN)NC(=O)CNC(=O)[C@H](CC(C)C)NC(=O)[C@H](Cc1ccccc1)NC(=O)[C@H](CCCCN)NC(=O)[C@H](CO)NC(=O)[C@H](Cc1ccccc1)NC(=O)[C@H](Cc1c[nH]c2ccccc12)NC(=O)[C@H](CCC(N)=O)NC(=O)[C@@H](NC(=O)[C@H](Cc1ccccc1)NC(=O)CCCCCNC(=O)CN1CCN(CC(=O)O)CCN(CC(=O)O)CCN(CC(=O)O)CC1)C(C)C)C(=O)N[C@@H](CCC(=O)O)C(=O)N1CCC[C@H]1C(=O)N[C@@H](CC(=O)O)C(=O)N[C@H](C(=O)N[C@@H](CO)C(=O)N[C@@H](CCC(N)=O)C(=O)N[C@H](C(=O)N[C@@H](CCC(N)=O)C(=O)N[C@@H](CC(=O)O)C(=O)N1CCC[C@H]1C(=O)N[C@@H](CC(N)=O)C(=O)N[C@@H](CC(=O)O)C(=O)N[C@@H](CCC(N)=O)C(=O)N[C@@H](Cc1ccc(O)cc1)C(=O)N[C@@H](CCC(=O)O)C(=O)N1CCC[C@H]1C(=O)N[C@@H](Cc1ccccc1)C(=O)O)C(C)C)C(C)C [copper-64 labelled]		GZMB-/- mice, CT26 tumour-bearing, large intestine	2 h, checkpoint inhibitor-treated		tissue uptake	2.61 ± 0.5 %ID/g
CC(=O)NCCCC[C@@H]1NC(=O)[C@H](Cc2c[nH]c3c(C)cccc23)NC(=O)[C@H]([C@@H](C)O)NC(=O)[C@H](CC(N)=O)NC(=O)[C@@H](NC(C)=O)C(C)(C)SSC(C)(C)[C@@H](C(=O)N[C@@H](Cc2ccc(OCCN)cc2)C(=O)N[C@@H](Cc2ccc3ccccc3c2)C(=O)NC2(C(=O)N[C@@H](CCC(=O)O)C(=O)N[C@@H](CC(N)=O)C(=O)N[C@@H](Cc3cccnc3)C(=O)N(C)CC(N)=O)CCOCC2)NC1=O		rat, blood	0.013 µM, 2 h		blood to plasma ratio	0.69 ± 0.07
CN1Cc2cc(Cl)ccc2-n2c(nnc2C2CCN(c3cccc([18F])n3)CC2)C1		C57BL/6 mouse male, testis	intravenous, 3.7 MBq, 15 min		tissue uptake	0.97 ± 0.11 %ID/g
CCCCCCCCCCCC(=O)C(C)C(=O)N1CCC[C@H]1C(=O)NC(C)(C)C(=O)NC(C)(C)C(=O)NC(C)(C)C(=O)N[C@](C)(CC)C(=O)NCCC(=O)N[C@@H](C)C(=O)N[C@](C)(CC)C(=O)N[C@@H](C)C(=O)N[C@@H](CC(C)C)C(=O)N[C@](C)(CC)C(=O)NCCC(=O)N[C@@H](C)C(=O)N[C@](C)(CC)C(=O)NCCC(=O)N[C@@H](C)C(=O)NC(C)(C)C(=O)NC(C)(C)C(=O)NC(C)(C)C(=O)N[C@@H](C)C(=O)N[C@@H](CC(=O)O)C(=O)O (stereo partly drawn)	LC-MS	buffer with trypsin	40 µM, 30 min, pH 7.5, 37 °C	reference: 0 h	remaining intact peptide	98.8% and 88.1% and 75.3%
CC(C)=CCC/C(C)=C/CCn1cc(CC(P(=O)(O)O)P(=O)(O)O)nn1	equilibrium dialysis	mouse plasma	10 µg/mL, 4 h		fraction unbound	0.038
CCCC[C@H]1C(=O)N(C)[C@@H](CCCC)C(=O)N[C@@H](CCCNC(=O)CN2CCN(CC(=O)O)CCN(CC(=O)O)CCN(CC(=O)O)CC2)C(=O)N[C@H](C(=O)NCC(N)=O)CSCC(=O)N[C@@H](Cc2ccc(O)cc2)C(=O)N(C)[C@@H](C)C(=O)N[C@@H](CC(N)=O)C(=O)N2CCC[C@H]2C(=O)N[C@@H](Cc2c[nH]cn2)C(=O)N[C@@H](CC(C)C)C(=O)N(C)CC(=O)N[C@@H](Cc2c[nH]c3ccccc23)C(=O)N[C@@H](CO)C(=O)N[C@@H](Cc2c[nH]c3ccccc23)C(=O)N1C [gallium-68 labelled]		NOD/SCID mice, CHO-hPD-L1 xenograft, pancreas	60 min, PBS pretreatment		tissue uptake	1.66 ± 0.19 %ID/g
